Results pooled from the literature.
Numbered parts are unrelated; each lists some results of a single study.

Series 1
Target: Sal-like protein 4, full length isoform B (SALL4, Homo sapiens, UniProt Q9UJQ4-2, residues 1-616)
Technique: universal PBM
Molecule type: double-stranded DNA, one strand shown
Medium: in vitro
Concentration: not given
Notes: 8-mer, flanks averaged, mean of replicates
Reading: higher = stronger binding
With `GGGTGCCA` the E-score was -0.131.
With `CATTACAG` the E-score was 0.191.
The E-score of `GTAATTAC` is reported as 0.262.
`GATCTGGC` gave an E-score of -0.133.
`AGGCCGAA` gave an E-score of -0.127.
The E-score of `CATTTCTA` is reported as 0.21.
With `CGACCCTC` the E-score was -0.111.
`GTGTCTTA` has an E-score of 0.0544.
`ACTCCCCT` gave an E-score of -0.135.
For `CTGGATCA`, the E-score was -0.0812.
`ACGCATCA` gave an E-score of 0.0591.
`ACCCAGCG` gave an E-score of -0.315.
`CTTTTCCA` gave an E-score of 0.0712.
With `ACTGGGCC` the E-score was -0.276.
`ATTGCGCA` gave an E-score of -0.0807.
`ATCAAACG` gave an E-score of 0.0271.
For `CCTTGTTA`, the E-score was 0.202.
`GGAGGAGA` has an E-score of -0.141.
With `GACTACAC` the E-score was 0.205.
For `AGATTTAG`, the E-score was 0.0282.
The E-score of `AATTTCGT` is reported as 0.271.

Series 2
Target: Interferon regulatory factor 7, full length, phosphomimetic (IRF7, Homo sapiens, UniProt Q92985, residues 1-503, S101K/S471D/S472D/S475D/S476D/S477D/S483D/S484D/S487D)
UniProt Q92985, sequence (whole entry, unmodified, looked up): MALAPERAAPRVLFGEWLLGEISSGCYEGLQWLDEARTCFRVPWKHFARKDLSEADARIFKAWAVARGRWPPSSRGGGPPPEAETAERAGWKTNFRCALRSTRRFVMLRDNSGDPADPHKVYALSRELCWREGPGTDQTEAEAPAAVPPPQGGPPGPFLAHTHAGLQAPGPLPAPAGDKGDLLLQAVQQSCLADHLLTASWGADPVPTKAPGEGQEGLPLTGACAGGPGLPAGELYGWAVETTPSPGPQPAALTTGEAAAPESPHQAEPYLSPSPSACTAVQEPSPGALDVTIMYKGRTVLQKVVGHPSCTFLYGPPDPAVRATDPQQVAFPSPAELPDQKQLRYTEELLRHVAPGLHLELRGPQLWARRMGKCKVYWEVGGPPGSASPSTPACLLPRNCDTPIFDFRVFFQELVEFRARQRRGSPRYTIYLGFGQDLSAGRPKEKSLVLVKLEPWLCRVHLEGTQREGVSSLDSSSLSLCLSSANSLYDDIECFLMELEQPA
Technique: protein-binding microarray
Molecule type: double-stranded DNA, one strand shown
Medium: in vitro
Concentration: 250 nM
Notes: 60-bp whole probe
With: salmon DNA 0.4 mg/ml
Reference: random background probes
Reading: higher = stronger binding
Constant ends, left off below: GCCTAGCAC … GTCTTGATTCGCTTGACGCTGCTG
With `CTGCTGATCGGTTGGGGTGGGTGCTAG` the log fluorescence was -0.184 z-score.
With `TTATGTATCCTTCTCCTTTAGTGCTAG` the log fluorescence was 0.581 z-score.
`TCAGGTTTCCTTCTCCTTTAGTGCTAG` has a log fluorescence of 2.42 z-score.
With `TGAGATCTCAGACTGGATTAGTGCTAG` the log fluorescence was -0.113 z-score.
`TTAGGTCTCGTACTGGGTTAGTGCTAG` has a log fluorescence of 0.615 z-score.
`TTAGGACTGCTACTGCTGTAGTGCTAG` has a log fluorescence of -0.637 z-score.
`TTAGCTTTCGACTATCGGTTAGTGCTA` has a log fluorescence of 0.546 z-score.
The log fluorescence of `CTAGATATCGGGACTGGATTAGTGCTA` is reported as 0.705 z-score.
For `GACGATCCCAGTATCGAGACGTGCTAG`, the log fluorescence was 0.406 z-score.
`TCACCCCTAGGGGGCAGTATGTGCTAG` has a log fluorescence of 0.536 z-score.
With `CTTTTTTTCAAGAAACAGTTCGTGCTA` the log fluorescence was 1.74 z-score.
For `GACGGACTGAGGTTTCGGGACGTGCTA`, the log fluorescence was 1.68 z-score.
`GACGATATCAGTCTTGAGACGTGCTAG` gave a log fluorescence of -0.143 z-score.
For `TTAGATATGAGTTTCGATTAGTGCTAG`, the log fluorescence was 7.96 z-score.
`TCATTTATAAATTATCTTACTGTGCTA` gave a log fluorescence of 1.23 z-score.
With `AACTGTCTGCCTTTCAATCCGTGCTAG` the log fluorescence was -0.31 z-score.
With `GACGGTTTCCTTCTACTGACGTGCTAG` the log fluorescence was 2.78 z-score.
`GACGGACTACTACTGCTGACGTGCTAG` has a log fluorescence of -0.41 z-score.
For `TTAGATATCGGGTATTGATTAGTGCTA`, the log fluorescence was 0.317 z-score.

Series 3
Target: Histone acetyltransferase KAT6A, winged helix 1, GST fusion (KAT6A, Homo sapiens, UniProt Q92794, residues 1-85)
Technique: protein binding microarray
Molecule type: double-stranded DNA, one strand shown
Medium: in vitro
Concentration: not given
Notes: 8-mer, flanks averaged, mean of 2 arrays, mostly near background
Reference: not given
Reading: higher = stronger binding
Construct (chain): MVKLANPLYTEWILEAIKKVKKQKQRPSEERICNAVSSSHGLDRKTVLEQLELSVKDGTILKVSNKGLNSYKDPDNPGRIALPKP
`AGGAAGTA` gave an E-score of -0.0428.
With `GCAATGAC` the E-score was -0.0478.
`AACCCGGG` has an E-score of 0.308.
With `ATAAAACC` the E-score was -0.0618.
For `GACCATCA`, the E-score was -0.0417.
`CCGCCCCC` gave an E-score of 0.338.
`AATATATG` gave an E-score of 0.0227.
`AATGACGG` has an E-score of 0.283.
`CCAAATTA` gave an E-score of -0.213.
`CGGGATAG` gave an E-score of 0.153.
`GGTATAAA` has an E-score of -0.0152.
`CACAAGTG` gave an E-score of -0.157.
With `CACTCTAG` the E-score was -0.0858.
For `ACCCTCCA`, the E-score was -0.323.
`TGTCAGAA` has an E-score of -0.148.
`CAACCGAC` has an E-score of 0.0338.
`AAAACTCC` has an E-score of -0.0465.
With `TGCTCACA` the E-score was -0.218.
For `ATAGGATC`, the E-score was -0.119.
`TAATCGAA` has an E-score of -0.0188.
For `GAAAATAA`, the E-score was -0.0748.
The E-score of `ATGGTTAG` is reported as -0.19.

Series 4
Target: Prothrombin, mature alpha-thrombin (F2, Homo sapiens, UniProt P00734)
Technique: aptamer microarray, sandwich
Molecule type: DNA with 2'F-ANA
Medium: in vitro
Concentration: 200 nM
Notes: whole 15-mer aptamer, many near background
With: Cy3 exosite-II aptamer, 400 nM
Reading: higher = stronger binding
Oligonucleotide: GGTTGGTGTGGTTGG
Under “mean fluorescence intensity”, `2'F-ANA at 1 4 5 9 11` is recorded as 51.6 a.u.
Under “mean fluorescence intensity”, `2'F-ANA at 3 4 5 7 8 9 10 11 13 14` is recorded as 56.6 a.u.
For `2'F-ANA at 3 5 7 8 9 12 13 15`, “mean fluorescence intensity” read 200 a.u.
`2'F-ANA at 6 11 13 15` — result for “mean fluorescence intensity”: 364 a.u.
Under “mean fluorescence intensity”, `2'F-ANA at 2 3 7 10 11 15` is recorded as 372 a.u.
For `2'F-ANA at 8 11 12 15`, “mean fluorescence intensity” read 719 a.u.
`2'F-ANA at 1 2 3 5 6 7 9 10 11 13`: “mean fluorescence intensity” 45.8 a.u.
`2'F-ANA at 1 3 4 11 12`: “mean fluorescence intensity” 388 a.u.
Under “mean fluorescence intensity”, `2'F-ANA at 2 5 6 7 9 10 11 13` is recorded as 48.7 a.u.
`2'F-ANA at 1 2 3 4 5 6 7 8 9 10 12 13 15` — result for “mean fluorescence intensity”: 51.7 a.u.
Under “mean fluorescence intensity”, `2'F-ANA at 1 4 8 10 11 14 15` is recorded as 46.2 a.u.
`2'F-ANA at 2 3 5 6 7 9 11 13 14 15` — result for “mean fluorescence intensity”: 48 a.u.
`2'F-ANA at 1 2 4 6 8 13`: “mean fluorescence intensity” 85.5 a.u.
`2'F-ANA at 3 4 5 6 8 9 10 12 13 14`: “mean fluorescence intensity” 65.3 a.u.
`2'F-ANA at 2 3 4 7 11 13 14`: “mean fluorescence intensity” 339 a.u.
`2'F-ANA at 3 5 6 7 10 11 12` — result for “mean fluorescence intensity”: 182 a.u.
`2'F-ANA at 1 2 3 4 6 7 8 9 11 14` — result for “mean fluorescence intensity”: 74.1 a.u.
`2'F-ANA at 1 2 3 5 7 9 12 13` — result for “mean fluorescence intensity”: 92.2 a.u.
`2'F-ANA at 1 2 8 10 11 12 15` — result for “mean fluorescence intensity”: 65.5 a.u.
`2'F-ANA at 1 2 3 5 6 8 9 11 14` — result for “mean fluorescence intensity”: 57.7 a.u.

Repeated from above (series 4):
`2'F-ANA at 1 2 4 6 8 13`: “mean fluorescence intensity” 85.5 a.u.
`2'F-ANA at 1 2 3 4 5 6 7 8 9 10 12 13 15` — result for “mean fluorescence intensity”: 51.7 a.u.
Under “mean fluorescence intensity”, `2'F-ANA at 1 4 5 9 11` is recorded as 51.6 a.u.
`2'F-ANA at 2 3 4 7 11 13 14`: “mean fluorescence intensity” 339 a.u.
`2'F-ANA at 3 5 6 7 10 11 12` — result for “mean fluorescence intensity”: 182 a.u.
Under “mean fluorescence intensity”, `2'F-ANA at 3 4 5 7 8 9 10 11 13 14` is recorded as 56.6 a.u.
Under “mean fluorescence intensity”, `2'F-ANA at 2 3 7 10 11 15` is recorded as 372 a.u.
`2'F-ANA at 1 2 8 10 11 12 15` — result for “mean fluorescence intensity”: 65.5 a.u.
`2'F-ANA at 1 3 4 11 12`: “mean fluorescence intensity” 388 a.u.
